Results gathered from unrelated publications.
Parts stem from different laboratories: compare values within a part only. Positions count from the first letter of the parent shown.
UniProt Q05655, sequence (whole entry, looked up): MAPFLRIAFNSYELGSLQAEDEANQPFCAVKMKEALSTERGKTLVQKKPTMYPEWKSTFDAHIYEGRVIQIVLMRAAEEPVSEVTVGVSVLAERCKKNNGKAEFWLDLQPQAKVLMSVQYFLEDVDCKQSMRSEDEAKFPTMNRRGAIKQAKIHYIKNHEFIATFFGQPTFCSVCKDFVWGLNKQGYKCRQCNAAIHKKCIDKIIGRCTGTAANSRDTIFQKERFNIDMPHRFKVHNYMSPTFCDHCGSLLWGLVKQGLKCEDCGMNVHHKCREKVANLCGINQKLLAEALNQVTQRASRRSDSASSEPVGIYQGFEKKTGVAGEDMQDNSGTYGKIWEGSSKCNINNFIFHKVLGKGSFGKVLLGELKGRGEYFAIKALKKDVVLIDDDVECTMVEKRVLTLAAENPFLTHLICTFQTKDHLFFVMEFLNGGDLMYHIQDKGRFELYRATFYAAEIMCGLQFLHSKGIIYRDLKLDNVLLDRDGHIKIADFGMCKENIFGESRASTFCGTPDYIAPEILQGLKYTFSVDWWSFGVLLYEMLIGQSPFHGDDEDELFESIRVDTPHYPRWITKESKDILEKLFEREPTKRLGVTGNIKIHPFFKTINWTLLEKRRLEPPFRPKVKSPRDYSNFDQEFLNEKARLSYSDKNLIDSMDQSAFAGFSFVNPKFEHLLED
UniProt Q17RY0, sequence (452-680, looked up): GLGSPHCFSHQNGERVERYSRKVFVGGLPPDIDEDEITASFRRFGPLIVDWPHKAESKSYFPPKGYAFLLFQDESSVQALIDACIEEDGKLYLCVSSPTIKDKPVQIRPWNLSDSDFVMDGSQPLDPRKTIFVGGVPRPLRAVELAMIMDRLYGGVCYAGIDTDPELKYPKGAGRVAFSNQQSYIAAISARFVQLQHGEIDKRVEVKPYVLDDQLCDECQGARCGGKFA
UniProt Q16513, sequence (whole entry, looked up): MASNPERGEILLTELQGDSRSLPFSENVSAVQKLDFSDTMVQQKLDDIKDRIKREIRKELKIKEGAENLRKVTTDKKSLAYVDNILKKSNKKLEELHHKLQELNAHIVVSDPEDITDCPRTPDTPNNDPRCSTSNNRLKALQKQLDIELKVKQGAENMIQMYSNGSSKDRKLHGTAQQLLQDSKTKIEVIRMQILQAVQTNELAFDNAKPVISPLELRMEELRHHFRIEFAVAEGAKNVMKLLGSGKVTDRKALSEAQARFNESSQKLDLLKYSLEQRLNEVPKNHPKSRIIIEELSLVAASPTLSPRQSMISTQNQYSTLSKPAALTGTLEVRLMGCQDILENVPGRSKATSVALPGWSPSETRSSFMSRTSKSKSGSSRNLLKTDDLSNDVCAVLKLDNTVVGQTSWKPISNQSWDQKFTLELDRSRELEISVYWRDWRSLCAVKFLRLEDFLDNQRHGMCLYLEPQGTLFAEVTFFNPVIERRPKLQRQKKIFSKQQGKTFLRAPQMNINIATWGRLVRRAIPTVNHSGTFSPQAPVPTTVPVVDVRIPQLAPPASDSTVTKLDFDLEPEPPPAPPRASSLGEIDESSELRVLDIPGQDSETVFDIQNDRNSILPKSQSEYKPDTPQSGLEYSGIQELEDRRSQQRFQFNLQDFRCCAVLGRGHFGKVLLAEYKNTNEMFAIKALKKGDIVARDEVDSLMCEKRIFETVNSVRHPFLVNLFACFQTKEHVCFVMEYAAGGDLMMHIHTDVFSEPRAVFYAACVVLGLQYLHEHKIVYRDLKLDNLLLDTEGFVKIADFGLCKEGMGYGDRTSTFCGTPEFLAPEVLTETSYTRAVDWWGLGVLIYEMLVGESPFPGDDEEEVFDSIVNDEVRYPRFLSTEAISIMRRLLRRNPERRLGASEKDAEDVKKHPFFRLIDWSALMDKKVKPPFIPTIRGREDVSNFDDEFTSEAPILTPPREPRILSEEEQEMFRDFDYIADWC

Study 1
Target: CCNB1, cyclin fold, Cln2 fusion (human)
Technique: yeast growth competition, sequencing
Sample: yeast
Notes: weak parent motif
Baseline: not given
Reading: higher = stronger binding
Starting sequence: CDC25A docking peptide (human); PPHRRRLLFACSP
Variant	normalised enrichment score
P1M	0.236
L8I	0.556
P1D	0.624
H3F	1.11
P13G	0.744
S12M	0.649
P2E	1.04
L8T	0.882

Study 2
Target: Ras GTPase-activating protein-binding protein 1, C-terminal RGG region (G3BP1, Homo sapiens, UniProt Q13283)
UniProt Q13283, sequence (whole entry, looked up): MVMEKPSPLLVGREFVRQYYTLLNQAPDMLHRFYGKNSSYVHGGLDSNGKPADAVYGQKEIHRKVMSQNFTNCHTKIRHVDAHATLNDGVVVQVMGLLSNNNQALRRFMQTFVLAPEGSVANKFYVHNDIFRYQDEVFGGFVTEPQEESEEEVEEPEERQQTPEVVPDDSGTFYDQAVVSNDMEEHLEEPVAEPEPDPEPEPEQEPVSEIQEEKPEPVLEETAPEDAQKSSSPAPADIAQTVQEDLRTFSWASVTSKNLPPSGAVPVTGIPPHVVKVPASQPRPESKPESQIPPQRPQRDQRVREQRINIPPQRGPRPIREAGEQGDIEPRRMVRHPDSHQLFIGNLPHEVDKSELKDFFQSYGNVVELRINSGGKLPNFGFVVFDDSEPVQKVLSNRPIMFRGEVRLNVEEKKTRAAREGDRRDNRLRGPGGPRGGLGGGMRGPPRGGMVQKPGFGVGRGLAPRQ
Technique: RNA Bind-n-Seq
Molecule type: RNA
Sample: in vitro
Tested at: 1 µM
Notes: whole 134-nt RNA, ends assumed
Together with: 150 mM KCl
Baseline: input library
Reading: higher = stronger binding
Sequence	log2 enrichment
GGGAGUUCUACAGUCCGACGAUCCUCAAGUCCUGUGCUACACAUCGUAUGUACCGAAUCGGGGAAGGAAGGGGAAGGAAAGUAUUAUGUUACGCCGUUCGGAUCUGCACUUCCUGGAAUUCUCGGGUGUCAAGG	-1.12
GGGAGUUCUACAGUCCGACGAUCCUCAAGUCCUGUGCUACACAUCGUAUGUACCGAAUCGGGCGGGGCGGGGCGGGAAAGUAUUAUGUUACGCCGUUCGGAUCUGCACUUCCAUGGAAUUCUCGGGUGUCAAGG	2.54
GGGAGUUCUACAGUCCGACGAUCACCAUGCAGGUGGGCAUCUUCGGGAAGUGGGGCAAGGGGGGGAUAGGGAGGGGGGUAACACUUUGGGAACAGGUGGUCCCAGGUCGUUUCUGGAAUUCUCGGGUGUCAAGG	-0.956
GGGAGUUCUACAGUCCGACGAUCGUCCUGUGCUACACAUCGUAUGUACCGAAUCGGGGUUUUUUUGGGGAAAGGGGUGGGGAAAGUAUUAUGUUACGCCGUUCGGAUCUGCACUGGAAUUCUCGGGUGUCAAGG	1.66
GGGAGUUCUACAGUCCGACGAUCUGGGAGGUGGAUUUUGUUUAUUUUUUUAGCUCAUUUCCAGGAGUGGGAAUUUUUUUUUAAUAUGUGUCAUGAAUAAAGUUGUUUUUGAAAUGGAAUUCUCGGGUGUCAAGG	3.96
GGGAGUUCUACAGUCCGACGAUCUCAAGUCCUGUGCUACACAUCGUAUGUACCGAAUCGGGGUUGGGUUGGGUUGGGGAAAGUAUUAUGUUACGCCGUUCGGAUCUGCACUUCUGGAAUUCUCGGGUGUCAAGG	2.26
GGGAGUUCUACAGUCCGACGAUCCUGUGCUACACAUCGUAUGUACCGAAUCGGGAAAAAAAGGGGAAAAAAAGGGAAAAAAAGGAAAGUAUUAUGUUACGCCGUUCGGAUCUGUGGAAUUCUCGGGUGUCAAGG	-1.36
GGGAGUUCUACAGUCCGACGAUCGCAGGAAGUAAACACAAAUGGAAAUGCUUCGGAUAGUGGCAGGGGUGGGGGUUGCUAAGGAAAGGGUGGGAUGGGAGUGGGUAAAGAGUUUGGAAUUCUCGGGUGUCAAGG	1.84

Single results of other studies
Molecule	tested on	assay	system	conditions	scale	endpoint	value
P4HA2 (Homo sapiens, UniProt O15460)	P4HB (Homo sapiens, UniProt P07237)	cross-linking MS	cell fractions	together with: DMTMM	–	cross-linked residues	K328 to E303
AAAAAAAA (biotin)	Cytoplasmic polyadenylation element-binding protein 4, RRM domains 1-2 (CPEB4, Homo sapiens, UniProt Q17RY0, residues 452-680)	protein domain microarray	RNA, in vitro	not given, poly(A) 8-mer RNA, whole probe, immobilized GST-fusion domains, most near background	baseline: GST loading signal, higher = stronger binding	signal ratio	0.0464
LMNA (Homo sapiens, UniProt P02545)	LMNB2 (Homo sapiens, UniProt Q03252)	cross-linking MS	–	hits only	–	interaction screen	cross-linked
CCN(CC)C(=O)c1ccc(Nc2nc(OCC3CCCCC3)c3[nH]cnc3n2)cc1	Protein kinase C delta type (PRKCD, Homo sapiens, UniProt Q05655)	enzyme activity, inhibitor	–	0.5 µM	baseline: control	remaining activity	76.7%
ATP5PF (Homo sapiens, UniProt P18859)	ATP5PB (Homo sapiens, UniProt P24539)	cross-linking MS	cell fractions	together with: DSSO	–	cross-linked residues	K41 to K233
CCOCCn1cc(C(=O)Nc2ccc(-n3nc(-c4cccnc4)cc3C(F)(F)F)cn2)ccc1=O	Serine/threonine-protein kinase N2 (PKN2, Homo sapiens, UniProt Q16513)	cell-free assay, competition with immobilised ligand	–	1 µM	–	remaining binding	100%
MTA2 (Homo sapiens, UniProt O94776)	HDAC2 (Homo sapiens, UniProt Q92769)	cross-linking MS	cell fractions	together with: DSSO	–	cross-linked residues	K71 to K221

Excerpt of the above (single results of other studies):
Molecule	tested on	assay	system	conditions	scale	endpoint	value
ATP5PF (Homo sapiens, UniProt P18859)	ATP5PB (Homo sapiens, UniProt P24539)	cross-linking MS	cell fractions	together with: DSSO	–	cross-linked residues	K41 to K233
LMNA (Homo sapiens, UniProt P02545)	LMNB2 (Homo sapiens, UniProt Q03252)	cross-linking MS	–	hits only	–	interaction screen	cross-linked
MTA2 (Homo sapiens, UniProt O94776)	HDAC2 (Homo sapiens, UniProt Q92769)	cross-linking MS	cell fractions	together with: DSSO	–	cross-linked residues	K71 to K221
